Experimental data gathered from unrelated publications.
A part holds a random share of what one study measured. Substitutions count along the parent as printed.

Study 1
Target: NFIL3, bZIP domain (human)
Method: DHFR protein complementation
Sample: yeast
Notes: single substitutions, most at no-binding floor
Baseline: wild-type JUN-FOS pair
Reading: higher = stronger binding
Starting sequence: JUN, bZIP domain (human); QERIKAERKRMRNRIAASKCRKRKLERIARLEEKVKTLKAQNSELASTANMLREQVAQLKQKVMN; partner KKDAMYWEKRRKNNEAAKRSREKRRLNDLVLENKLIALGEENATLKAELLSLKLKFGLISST
| Change | binding fitness [natural log] |
| --- | --- |
| K39Q | -1.58 |
| L45G | -1.48 |
| I28H | -1.11 |
| E54C | -1.53 |
| K34D | -1.49 |
| A49N | -1.52 |
| L59P | -1.52 |
| Q55N | -1.44 |
| V56K | -1.4 |
| E44G | -1.47 |
| I28G | -1.38 |
| N42I | -1.53 |
| S43N | -1.59 |
| K39G | -1.49 |
| V35R | -1.47 |
| T48L | -1.43 |
| S43L | -1.35 |
| T37M | -0.973 |
| L31D | -1.37 |
| L31R | -1.43 |
| T37H | -1.5 |
| S47F | -1.41 |

Study 2
Target: ABI1, truncated, D143A, DHFR fusion (Arabidopsis thaliana)
Method: DHFR PCA, deep sequencing
Sample: yeast
Notes: methotrexate growth selection, single substitutions
Together with: (+)-ABA 0.0091 µM
Baseline: wild-type fitted maximum
Reading: higher = stronger binding
Starting sequence: PYL1, truncated, DHFR fusion (Arabidopsis thaliana); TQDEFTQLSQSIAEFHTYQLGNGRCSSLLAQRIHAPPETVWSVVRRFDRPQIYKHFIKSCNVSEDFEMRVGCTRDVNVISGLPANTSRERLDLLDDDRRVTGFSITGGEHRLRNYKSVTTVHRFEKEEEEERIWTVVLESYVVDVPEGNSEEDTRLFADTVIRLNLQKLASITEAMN
| Change | relative binding score [%] |
| --- | --- |
| D97E | 61.7 |
| G71C | 0.0122 |
| T73H | 21.5 |
| Y141Q | -4.37 |
| K116E | -1.58 |
| V62M | 3 |
| I79E | 13.9 |
| I79P | -0.279 |
| R46K | 25.2 |
| N149I | 41.1 |
| S80A | 12.8 |

Study 3
Target: PABPC1L2, full length, GST fusion (mouse, UniProt A0ABA7IW68)
Method: RNAcompete
Molecule type: RNA
Sample: in vitro
Tested at: 20 nM
Notes: 7-mer, probes averaged, single round
Baseline: mean of 7-mers
Reading: higher = stronger binding
Target sequence (chain): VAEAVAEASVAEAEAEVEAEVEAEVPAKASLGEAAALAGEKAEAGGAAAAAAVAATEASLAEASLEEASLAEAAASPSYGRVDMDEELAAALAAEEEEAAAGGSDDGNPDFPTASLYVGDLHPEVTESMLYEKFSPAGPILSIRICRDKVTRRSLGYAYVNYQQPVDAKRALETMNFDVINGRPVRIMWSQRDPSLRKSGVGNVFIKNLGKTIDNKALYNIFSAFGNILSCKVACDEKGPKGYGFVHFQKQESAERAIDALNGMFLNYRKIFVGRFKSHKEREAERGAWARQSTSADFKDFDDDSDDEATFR
| Oligonucleotide | 7-mer Z-score |
| --- | --- |
| CUGAAAG | -0.0246 |
| ACCCCAG | -0.202 |
| GCCGGAC | 0.0297 |
| GCUUCUC | -0.403 |
| CCAGACG | 0.124 |
| ACGUCUA | -0.385 |
| AGCUUCU | -0.429 |
| GAUGUAC | -0.166 |
| UGGUUGG | -0.151 |
| ACGGUUC | -0.119 |
| AGUCUGU | -0.275 |
| GACAGAG | 0.124 |
| CGAAAUG | -0.0645 |
| UCGAGUG | -0.15 |

Study 4
Target: Sal-like protein 4, full length isoform B (SALL4, Homo sapiens, UniProt Q9UJQ4-2, residues 1-616)
Method: universal PBM
Molecule type: double-stranded DNA, one strand shown
Sample: in vitro
Tested at: not given
Notes: 8-mer, flanks averaged, mean of replicates
Reading: higher = stronger binding
| Oligonucleotide | E-score |
| --- | --- |
| CGGTATAC | -0.0998 |
| ATTTCTGA | 0.0961 |
| CCATACCA | 0.0361 |
| CTGCCGTC | -0.319 |
| CCCAAAGG | -0.198 |
| CTGATTAC | 0.0839 |
| GGACCACC | -0.247 |
| GTTCGGGA | -0.203 |
| CCTTATAG | 0.255 |
| CCGAGAAC | -0.153 |
| ACTGATCA | 0.0696 |
| TAGGCTGA | -0.109 |
| GGAGTTAC | -0.0422 |
| ATAATCTC | 0.25 |
| CTCGTGTC | -0.174 |
| GAGCCTGC | -0.259 |
| AGCTGATC | -0.173 |
| CCCACACG | -0.105 |
| CCACTGTC | -0.243 |
| ATGCTTTC | 0.15 |
| AAAAGCCC | -0.0541 |
| CTAGCCGA | -0.165 |
| CCGGGGGA | -0.377 |
| CCAAATCG | 0.0594 |
| GACCGTGA | -0.186 |

Study 5
Target: CCNA1, cyclin fold, Cln2 fusion (human)
Method: yeast growth competition, sequencing
Sample: yeast
Notes: weak parent motif
Baseline: not given
Reading: higher = stronger binding
Starting sequence: TICRR docking peptide (human); TKVRRNLFNQELL
| Change | normalised enrichment score |
| --- | --- |
| TKVARNLFNQELL [R4A] | 0.125 |
| TKVRRNLANQELL [F8A] | 0.0776 |
| AKVRRNLFNQELL [T1A] | 0.426 |
| TKVRRNLFAQELL [N9A] | 0.419 |
| TKVRKNLFNQELL [R5K] | 0.217 |
| TKARRNLFNQELL [V3A] | 0.00737 |
| TKVRANLFNQELL [R5A] | 0.387 |

Study 6
Target: Ras GTPase-activating protein-binding protein 1, full length (G3BP1, Homo sapiens, UniProt Q13283)
UniProt Q13283, sequence (whole entry, looked up): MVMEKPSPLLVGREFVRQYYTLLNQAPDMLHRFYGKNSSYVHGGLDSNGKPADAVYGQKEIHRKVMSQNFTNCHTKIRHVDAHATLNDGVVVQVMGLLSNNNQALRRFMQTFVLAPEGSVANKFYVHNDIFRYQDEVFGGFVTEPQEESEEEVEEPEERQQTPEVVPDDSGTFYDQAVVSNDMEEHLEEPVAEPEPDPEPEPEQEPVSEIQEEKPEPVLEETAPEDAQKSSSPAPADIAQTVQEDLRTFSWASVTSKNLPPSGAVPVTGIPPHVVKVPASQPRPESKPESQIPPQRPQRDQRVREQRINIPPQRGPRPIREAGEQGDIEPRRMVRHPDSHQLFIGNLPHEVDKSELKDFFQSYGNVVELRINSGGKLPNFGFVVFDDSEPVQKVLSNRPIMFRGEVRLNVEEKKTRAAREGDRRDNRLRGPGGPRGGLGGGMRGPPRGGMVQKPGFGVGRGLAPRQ
Method: RNA Bind-n-Seq
Molecule type: RNA
Sample: in vitro
Tested at: 200 nM
Notes: whole 134-nt RNA, ends assumed
Together with: 150 mM KCl
Baseline: input library
Reading: higher = stronger binding
Constant ends, left off below: GGGAGUUCUACAGUCCGACGAUC … UGGAAUUCUCGGGUGUCAAGG
| Oligonucleotide | log2 enrichment |
| --- | --- |
| UCCUGUGCUACACAUCGUAUGUACCGAAUCGGGGUUUUUUGGGUUUUUUGGUUUUUUGGAAAGUAUUAUGUUACGCCGUUCGGAUCUGCA | -0.439 |
| CUCAAGUCCUGUGCUACACAUCGUAUGUACCGAAUCGGAAAGGAAAAAGGAGGAAAGUAUUAUGUUACGCCGUUCGGAUCUGCACUUCCA | -0.411 |
| AGUCCUGUGCUACACAUCGUAUGUACCGAAUCGGGGUUUUUUUGGGGAGGGGAGGGGAAAGUAUUAUGUUACGCCGUUCGGAUCUGCACU | 0.632 |
| ACCAUGCAGGUGGGCAUCUUUGGGAAGUGGGGCAAAAGGGGGAUAGGGAGGGGGGUAACACUUUGGGAACAGGUGGUCCCAGGUCGUUUC | 0.921 |
| UCCUCAAGUCCUGUGCUACACAUCGUAUGUACCGAAUCGGGCGGCGGGGCGGAAAGUAUUAUGUUACGCCGUUCGGAUCUGCACUUCCAG | -0.137 |
| UCAAGUCCUGUGCUACACAUCGUAUGUACCGAAUCGGGAAGGGAAGGGGAAGGGGAAAGUAUUAUGUUACGCCGUUCGGAUCUGCACUUC | 1.06 |
| AGUCCUGUGCUACACAUCGUAUGUACCGAAUCAAACCCAAACCCCCCCAAACCCAAAAAAGUAUUAUGUUACGCCGUUCGGAUCUGCACU | -0.484 |
| CCUCAAGUCCUGUGCUACACAUCGUAUGUACCGAAUCGGGCGGGGCGGCGGGAAAGUAUUAUGUUACGCCGUUCGGAUCUGCACUUCCAG | 0.49 |
| UGGGAGGUGGAUUUUGUUUAUUUUUUUAGCUCAUUUCCAGGGGUGGGAACUUUUUUUUAAUAUGUGUCAUGAAUAAAGUUGUUUUUGAAA | 0.244 |
| AGUCCUGUGCUACACAUCGUAUGUACCGAAUCGGGGUUUGGGGUGGGGAAAAAGGGGAAAGUAUUAUGUUACGCCGUUCGGAUCUGCACU | 0.21 |

Mixed results
| Molecule | tested on | assay | test system | setting | scale | quantity | result |
| --- | --- | --- | --- | --- | --- | --- | --- |
| DDX21 (Homo sapiens, UniProt Q9NR30) | KIF15 (Homo sapiens, UniProt Q9NS87) | cross-linking MS | cell fractions | together with: DMTMM | – | cross-linked residues | D14 to K1256 |
| PhoQ, residues 284 288 289 292 302 303 TGYLSA | PhoP, residues 12 14 15 18 19 NMSFL (Escherichia coli, UniProt P23836) | Sort-seq, item: YFP reporter | E. coli | PhoQ-PhoP variant library, together with: 10 µM Mg2+ | baseline: high Mg2+ state, higher = stronger signaling | fold induction | 2.68 |
| NUP43 (Homo sapiens, UniProt Q8NFH3) | SEH1L (Homo sapiens, UniProt Q96EE3) | cross-linking MS | cell fractions | together with: DSSO | – | cross-linked residues | K161 to K96 |
| MTA1 (Homo sapiens, UniProt Q13330) | RBBP7 (Homo sapiens, UniProt Q16576) | cross-linking MS | cell fractions | together with: DMTMM | – | cross-linked residues | K532 to E351 |

Repeated from above (study 1):
| Change | binding fitness [natural log] |
| --- | --- |
| E54C | -1.53 |
| L31D | -1.37 |
| K34D | -1.49 |
| L59P | -1.52 |
| N42I | -1.53 |
| K39Q | -1.58 |
| I28H | -1.11 |
| V56K | -1.4 |
| Q55N | -1.44 |
| E44G | -1.47 |
| S47F | -1.41 |
| T37M | -0.973 |
| I28G | -1.38 |
